{"data": "Measurements from different studies", "note": "Every numbered part comes from another study and shows a few of its results, in no order. Changes are numbered by the printed parent chain."}
{"data": "Series 1", "target": "Prothrombin, mature alpha-thrombin (F2, Homo sapiens, UniProt P00734)", "technique": "aptamer microarray, sandwich", "form": "DNA with 2'F-ANA", "matrix": "in vitro", "tested at": "200 nM", "notes": "whole 15-mer aptamer, many near background", "together with": "Cy3 exosite-II aptamer, 400 nM", "reading": "higher = stronger binding", "sequence": "GGTTGGTGTGGTTGG"}
{"Modification": "2'F-ANA at 1 2 3 5 7 10 14 15", "mean fluorescence intensity": "45.8 a.u."}
{"Modification": "2'F-ANA at 1 4 7 8 9 10 13 14 15", "mean fluorescence intensity": "70.8 a.u."}
{"Modification": "2'F-ANA at 1 2 6 9 12 13 14 15", "mean fluorescence intensity": "62.5 a.u."}
{"Modification": "2'F-ANA at 1 2 7 9 10 11 13 15", "mean fluorescence intensity": "53.1 a.u."}
{"Modification": "2'F-ANA at 5 7 8 10 14", "mean fluorescence intensity": "47.3 a.u."}
{"Modification": "2'F-ANA at 1 4 5 7 10 15", "mean fluorescence intensity": "63.1 a.u."}
{"Modification": "2'F-ANA at 2 3 6 7 8 10 13 14 15", "mean fluorescence intensity": "250 a.u."}
{"Modification": "2'F-ANA at 3 6 7 9 12 14 15", "mean fluorescence intensity": "507 a.u."}
{"Modification": "2'F-ANA at 2 4 6 10 12", "mean fluorescence intensity": "124 a.u."}
{"Modification": "2'F-ANA at 6 8 9 10 14 15", "mean fluorescence intensity": "101 a.u."}
{"Modification": "2'F-ANA at 3 4 5 9 10 11 15", "mean fluorescence intensity": "56.6 a.u."}
{"data": "Series 2", "target": "CCNA2, cyclin fold, Cln2 fusion (human)", "technique": "yeast growth competition, sequencing", "matrix": "yeast", "notes": "strong parent motif", "reference": "not given", "reading": "higher = stronger binding", "starting sequence": "CDKN1B docking peptide (human); PSACRNLFGPVDH; partner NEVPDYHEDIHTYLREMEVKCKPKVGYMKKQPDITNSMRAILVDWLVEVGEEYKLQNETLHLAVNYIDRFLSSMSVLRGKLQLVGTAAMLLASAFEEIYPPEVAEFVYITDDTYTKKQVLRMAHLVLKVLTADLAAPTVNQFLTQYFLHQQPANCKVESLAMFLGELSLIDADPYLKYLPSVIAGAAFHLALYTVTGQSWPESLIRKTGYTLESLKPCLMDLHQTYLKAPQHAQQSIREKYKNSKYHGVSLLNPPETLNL"}
{"Change": "PSACRNLFCPVDH [G9C]", "normalised enrichment score": 1.12}
{"Change": "PSAGRNLFGPVDH [C4G]", "normalised enrichment score": 0.649}
{"Change": "PSACRDLFGPVDH [N6D]", "normalised enrichment score": 0.271}
{"Change": "PSACRNLFGPVDG [H13G]", "normalised enrichment score": 4.33}
{"Change": "PSACRNLFGPNDH [V11N]", "normalised enrichment score": 3.61}
{"Change": "PSACRNLFGGVDH [P10G]", "normalised enrichment score": 4.01}
{"Change": "PSACRNLFGTVDH [P10T]", "normalised enrichment score": 3.52}
{"Change": "PSACRNLWGPVDH [F8W]", "normalised enrichment score": 0.899}
{"data": "Series 3", "target": "Histone acetyltransferase KAT6A, both winged helices, GST fusion (KAT6A, Homo sapiens, UniProt Q92794, residues 1-181)", "technique": "protein binding microarray", "form": "double-stranded DNA, one strand shown", "matrix": "in vitro", "tested at": "not given", "notes": "8-mer, flanks averaged, mean of 2 arrays, mostly near background", "reference": "not given", "reading": "higher = stronger binding", "Target sequence (chain)": "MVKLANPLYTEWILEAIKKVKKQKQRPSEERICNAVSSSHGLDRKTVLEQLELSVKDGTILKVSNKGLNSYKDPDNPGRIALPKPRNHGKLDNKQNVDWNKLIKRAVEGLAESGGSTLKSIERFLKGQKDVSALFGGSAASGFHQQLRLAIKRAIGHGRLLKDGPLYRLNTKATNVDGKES"}
{"Sequence": "CCTCGACA", "E-score": -0.051}
{"Sequence": "ACAGTACT", "E-score": -0.196}
{"Sequence": "TAGTTTGA", "E-score": 0.0771}
{"Sequence": "AACGCGTT", "E-score": 0.296}
{"Sequence": "ACCTATCG", "E-score": 0.0193}
{"Sequence": "GGTGTTAA", "E-score": 0.0751}
{"Sequence": "AACGGTAG", "E-score": 0.113}
{"Sequence": "ACCGAATG", "E-score": 0.0584}
{"data": "Single results of other studies"}
{"Molecule": "PhoQ, residues 284 288 289 292 302 303 SSTLLI", "target": "PhoP, residues 12 14 15 18 19 GQAIL (Escherichia coli, UniProt P23836)", "test": "Sort-seq, item: YFP reporter", "system": "E. coli", "setting": "PhoQ-PhoP variant library, together with: 10 µM Mg2+", "scale": "reference: high Mg2+ state, higher = stronger signaling", "measurement": "fold induction", "result": 15.9}
{"note": "Repeated from above (series 2):"}
{"Change": "PSACRNLWGPVDH [F8W]", "normalised enrichment score": 0.899}
{"Change": "PSAGRNLFGPVDH [C4G]", "normalised enrichment score": 0.649}
{"Change": "PSACRNLFGGVDH [P10G]", "normalised enrichment score": 4.01}
{"Change": "PSACRNLFGPNDH [V11N]", "normalised enrichment score": 3.61}
